Experimental data gathered from unrelated publications.
Compare with care: the assays were run in different laboratories.
Technique: steady-state kinetics
B1: enzyme (Astragalus mongholicus, UniProt A0A977WMR2); chain MDGKGEDKPLKLYFIPYLAPGHMIPLCAMATLFASKGHHVTIITTPFNAKTLQKSIPSSQSKQHLHLHTVPFPSQEVSLPDGIENLSATTNLDNLVKVYQATTLLRPPIENFVLQNPPDCIVADFLFPWVDELANNLKIPRFAFNGFSLFAICAIESVKKHSLYSSTSFSIPDLPHTITMNASPPKQMSEMLQPLLDTELKSNGLIVNNFVELDGEEYIEHYEKTTGHKAWHLGPASLIRRSIEEKVESGQESAVSVHECLSWLNSKRVNSVVYICFGSLCHFPDKQLYEIACGIEASGHEFIWVVPEKKGKEDESEEEKEKWLPKGFQFQNQEKGLIIRGWAPQVLILSHPAVGAFLTHCGWNSTVEAVSFGIPMITWPVHGEQFYNEKLITQVRGIGVEVGAAEWTAVGFGEREKIVSRDSIQKAVERLMDGGDEAENIRRLAREFGDKAKLAVQEGGSSHKNLTTLIDDLKRLRDCKLS
B2: genB3 Q310N (Micromonospora echinospora, UniProt Q2MG50); chain MDSANLTNRGLVERARRVTAAENYDIGTRFSAMIQSGEGAWLTDVEGNRYVDLTASSGTIILGHRNQAVTEAITRQIRDFGTAFASTLSVPRVELAERLCERYECAEKVVFHKTGSEGTAMAARLARAATGRELILSCGYHGWHEWQLAGETFGYQQTTGVVGFGYNEKALAKMLEAFGNEVAGVLISPELLYFDVEFYQRMYALCARYDVPFMMDEVYTGFRAGPKGVHGLGVPADVVVVSKGLANGHSLAAVMGRRDIIDAYDVSGINGTYTREVPPMAAAMAVLDVLDTPGVYEHAEAMGRRLADGMREILTGEGIPNWVGGPALMFDTVLPNDDLGWEIYKTAHDFGVYFEDSGTQLVTTAFDEAAVDHALTAFRKATRQVIADRPDIAPTSGGELTEERKLDFAEEAFGGLLRDDERTNALIDETIEKVVNRDRSIKPVLIPAQN
B3: enzyme (Streptomyces filamentosus, UniProt A0ABY4UVI6); chain MEHRIDADLLIPGAGEPTVNGSVVHADGRIRFAGPTAELPREHRALEPTRVATLLPGLWDCHVHFAGIRGRVSTEELMLTPETLAVVRSVKDAETALRAGFTSVRDMGGHGCVLAEAVREGTFTGPNIYSANQVIGQTGGHSDAHRLPYRWVTDPCRSGGTLRIADGVDECVRAVRLQLRAGAELIKICTSGGVLSEVDNPVHQQYRSEELNAIVTEAARADRVVAAHCHGRAGILAAIDAGCHTVEHGTEIDERTADLMAERGMTLVPTRTIYEAFRQDVAALPPAWRDRFALMAERHLTAIGIAHRAGVTIALGTDLGTSDRGGPLSWGGHGSEFAHLVSAGLSPLEAIKAATAHGPGTLGPRAPRSGRLEAGYDADLLAVDGNPLADITVLADPDRITRVWKSGEPVPSG
B4: enzyme (UniProt Q53796); chain MTEHPRAHTAHLRTARLELTPLDPAADARHLHHAYGDEEVMRWWTRPACADPAETERYLTSCAAAPGARLWTIRAPDGTVPGMAGLLGGTDVPGLTWLLRRDSWGHGYATEAAAAVVGHALEDGGLDRVEAWIEAGNRRSLAVAARVGLTERARLAQHYPHRPGPHEMVVLGKARAEEPLTTLAVITELPVRDVAATLRLVEAALGARTAFAIGDPPEFAEAALTPWSAGPRFRLAAVPGPGPVEPVRLHLDAAGTADSLHRRAVDAGARVDGPPVRRPWGRSEFVITLPEGHELTVSAPV
B5: enzyme (Bacillus subtilis, UniProt P39639); chain MKTKEDMQELYFPTPKLIEWENGVRQYSTVRGDTEVLMSYVPPHTNVEPHQHKEVQIGMVVSGELMMTVGDVTRKMTALESAYIAPPHVPHGARNDTDQEVIAIDIKRLKADETYTSPEDYFLDIFKTRDLLPGMEVTFFVEDWVEIMLAKIPGNGGEMPFHKHRNEQIGICIGGGYDMTVEGCTVEMKFGTAYFCEPREDHGAINRSEKESKSINIFFPPRYNRAKAKKMKADE
B6: PPIP5K2 (Homo sapiens, UniProt O43314); chain MSEAPRFFVGPEDTEINPGNYRHFFHHADEDDEEEDDSPPERQIVVGICSMAKKSKSKPMKEILERISLFKYITVVVFEEEVILNEPVENWPLCDCLISFHSKGFPLDKAVAYAKLRNPFVINDLNMQYLIQDRREVYSILQAEGILLPRYAILNRDPNNPKECNLIEGEDHVEVNGEVFQKPFVEKPVSAEDHNVYIYYPTSAGGGSQRLFRKIGSRSSVYSPESNVRKTGSYIYEEFMPTDGTDVKVYTVGPDYAHAEARKSPALDGKVERDSEGKEVRYPVILNAREKLIAWKVCLAFKQTVCGFDLLRANGQSYVCDVNGFSFVKNSMKYYDDCAKILGNIVMRELAPQFHIPWSIPLEAED
B7: protein (Thermotoga neapolitana, UniProt B9K712); chain MKMLYDLAKKRKTVRRFKKEKPPLEDLIYSLKVANEAPSGMNAQPWRFLIVEDEKLKGQIRRVCERSEKTFYENVRGRLKEWLDEKRFTWRKPFLKEAPYLLLVFSEKSAPYSRESVWLAVGYLLLALEEKGLGSVPYTPPDFREVEKLVNTPSELRLEVILPVGYPDDPKPKYPRNEVIVRYNTF
B8: enzyme (Streptomyces platensis, UniProt A0A0A0V031); chain MQHTTIGDVLREHRRSHPGRTALVDGPVRLTWPELDDRVNRLAGSLAASGIGRGDRIMWLGQNSFRVYELIAAAGKLGAMVCVGYWRWAPPEMEFALRDFDPHLVVWQHQEIHETVARTREALGSDDTARWLRHDSAPQDPDGYEAFLAAGGLADPDLDIDPDSPVLVLYTAAMSGRQCGSLLSHTNLIAMATAAAWLGDIDHTTAFLNSGPMFHIGNHQFWGMPTLLMAGKNVIVRRVVAEEVRDLLVAEECTHAFLMPPTVAEIVRLNRDTGHDLSRLRATVAPHLWEGMATTDTSRFTRSGAAAGRGYGQTELSGFAVTAAYGGPAAGNAGRPGPGLTVRVLDTAGRECAVGEAGEICARGTVVHRGYWNRDEVNAHRFRSGWWHTTDLGRREPDGSLTFLGTTTRMLKSAAENIFPAEVENCIEQHPAVREAAVIGVPNTRWAQDVKAVVVLEPDAGVSEQEIIDHCRPRIASYKKPKSVAFAAALPRTVSGARDYDALDKEYGGGGYPGAATLGPGR
B9: enzyme (Streptomyces venezuelae, UniProt Q9ZGI2); chain SGADTGAGAGMFRALFRQAVEDDRYGEFLDVLAEASAFRPQFASPEACSERLDPVLLAGGPTDRAEGRAVLVGCTGTAANGGPHEFLRLSTSFQEERDFLAVPLPGYGTGTGTGTALLPADLDTALDAQARAILRAAGDAPVVLLGHSGGALLAHELAFRLERAHGAPPAGIVLVDPYPPGHQEPIEVWSRQLGEGLFAGELEPMSDARLLAMGRYARFLAGPRPGRSSAPVLLVRASEPLGDWQEERGDWRAHWDLPHTVADVPGDHFTMMRDHAPAVAEAVLSWLDAIEGIEGAGK
B10: DTYMK (Homo sapiens, UniProt P23919); chain MAARRGALIVLEGVDRAGKSTQSRKLVEALCAAGHRAELLRFPERSTEIGKLLSSYLQKKSDVEDHSVHLLFSANRWEQVPLIKEKLSQGVTLVVDRYAFSGVAFTGAKENFSLDWCKQPDVGLPKPDLVLFLQLQLADAAKRGAFGHERYENGAFQERALRCFHQLMKDTTLNWKMVDASKSIEAVHEDIRVLSEDAIRTATEKPLGELWK

`B1 (enzyme)` gave a Km of 55.5 µM (CC(C)(O)[C@H]1CC[C@@](C)([C@H]2[C@@H](O)C[C@@]3(C)[C@@H]4C[C@H](O)[C@H]5C(C)(C)[C@@H](O)CC[C@@]56C[C@@]46CC[C@]23C)O1).
For `B2 (genB3 Q310N)`, the Km was 250 µM (CN[C@@H]1[C@@H](O)[C@@H](O[C@@H]2[C@@H](O)[C@H](O[C@H]3O[C@H](CN)[C@@H](O)[C@H](OP(=O)(O)O)[C@H]3N)[C@@H](N)C[C@H]2N)OC[C@]1(C)O; 30 °C).
`B3 (enzyme)` gave a Km of 370 µM (CC(C)C[C@H](NC(=O)c1cc(O)cc(-c2ccccn2)n1)C(=O)O; pH 8, 30 °C).
The Km of `B4 (enzyme)` is reported as 15 µM (Cc1c(N)nc([C@H](CC(N)=O)NC[C@H](N)C(N)=O)nc1C(=O)N[C@H](C(=O)N[C@H](C)[C@@H](O)[C@H](C)C(=O)N[C@H](C(=O)NCCc1nc(-c2nc(C(=O)NCCCCNC(=N)N)cs2)cs1)[C@@H](C)O)[C@@H](O[C@@H]1O[C@@H](CO)[C@@H](O)[C@H](O)[C@@H]1O[C@H]1O[C@H](CO)[C@@H](O)[C@H](OC(N)=O)[C@@H]1O)c1c[nH]cn1; pH 7.5, 30 °C).
For `B5 (enzyme)`, the Km was 423 µM (O=C(O)C(=O)C[C@H]1C=C[C@H](O)C=C1; pH 8.1, apparent).
`B6 (PPIP5K2)` has a Km of 0.06 µM (O=P(O)(O)O[C@H]1[C@@H](OP(=O)(O)O)[C@H](OP(=O)(O)O)[C@@H](OP(=O)(O)OP(=O)(O)O)[C@H](OP(=O)(O)O)[C@H]1OP(=O)(O)O).
`B7 (protein)` has a Km of 0.14 µM (N[C@@H](Cc1ccc(O)c(Br)c1)C(=O)O; pH 7.4, 60 °C).
`B8 (enzyme)` has a Km of 1.5 µM (C[C@@]12CCC[C@@](C)(C(=O)OP(=O)(O)OC[C@H]3O[C@@H](n4cnc5c(N)ncnc54)[C@H](O)[C@@H]3O)[C@H]1C[C@@H](O)[C@]13C[C@H]4C[C@H](O[C@@]4(C)C1)[C@@H]23; pH 7.8, 25 °C).
For `B9 (enzyme)`, the Km was 4460 µM (CC[C@@H](O)[C@H](C)/C=C/C(=O)[C@H](C)C[C@H](C)[C@H](OC)[C@@H](C)C(=O)SCCNC(C)=O).
`B10 (DTYMK)` has a Km of 380 µM (Cc1cn([C@@H]2C[C@@H](O)[C@H](COP(=O)(O)O)O2)c(=O)[nH]c1=O; added: ATP 2 mM, Mg2+ 2 mM).

Excerpt of the above:
The Km of `B4 (enzyme)` is reported as 15 µM (Cc1c(N)nc([C@H](CC(N)=O)NC[C@H](N)C(N)=O)nc1C(=O)N[C@H](C(=O)N[C@H](C)[C@@H](O)[C@H](C)C(=O)N[C@H](C(=O)NCCc1nc(-c2nc(C(=O)NCCCCNC(=N)N)cs2)cs1)[C@@H](C)O)[C@@H](O[C@@H]1O[C@@H](CO)[C@@H](O)[C@H](O)[C@@H]1O[C@H]1O[C@H](CO)[C@@H](O)[C@H](OC(N)=O)[C@@H]1O)c1c[nH]cn1; pH 7.5, 30 °C).
For `B9 (enzyme)`, the Km was 4460 µM (CC[C@@H](O)[C@H](C)/C=C/C(=O)[C@H](C)C[C@H](C)[C@H](OC)[C@@H](C)C(=O)SCCNC(C)=O).
